Assay results from different studies.
Every numbered part comes from another study and shows a few of its results, in no order.
Chain of UniProt O75116 (whole entry, looked up): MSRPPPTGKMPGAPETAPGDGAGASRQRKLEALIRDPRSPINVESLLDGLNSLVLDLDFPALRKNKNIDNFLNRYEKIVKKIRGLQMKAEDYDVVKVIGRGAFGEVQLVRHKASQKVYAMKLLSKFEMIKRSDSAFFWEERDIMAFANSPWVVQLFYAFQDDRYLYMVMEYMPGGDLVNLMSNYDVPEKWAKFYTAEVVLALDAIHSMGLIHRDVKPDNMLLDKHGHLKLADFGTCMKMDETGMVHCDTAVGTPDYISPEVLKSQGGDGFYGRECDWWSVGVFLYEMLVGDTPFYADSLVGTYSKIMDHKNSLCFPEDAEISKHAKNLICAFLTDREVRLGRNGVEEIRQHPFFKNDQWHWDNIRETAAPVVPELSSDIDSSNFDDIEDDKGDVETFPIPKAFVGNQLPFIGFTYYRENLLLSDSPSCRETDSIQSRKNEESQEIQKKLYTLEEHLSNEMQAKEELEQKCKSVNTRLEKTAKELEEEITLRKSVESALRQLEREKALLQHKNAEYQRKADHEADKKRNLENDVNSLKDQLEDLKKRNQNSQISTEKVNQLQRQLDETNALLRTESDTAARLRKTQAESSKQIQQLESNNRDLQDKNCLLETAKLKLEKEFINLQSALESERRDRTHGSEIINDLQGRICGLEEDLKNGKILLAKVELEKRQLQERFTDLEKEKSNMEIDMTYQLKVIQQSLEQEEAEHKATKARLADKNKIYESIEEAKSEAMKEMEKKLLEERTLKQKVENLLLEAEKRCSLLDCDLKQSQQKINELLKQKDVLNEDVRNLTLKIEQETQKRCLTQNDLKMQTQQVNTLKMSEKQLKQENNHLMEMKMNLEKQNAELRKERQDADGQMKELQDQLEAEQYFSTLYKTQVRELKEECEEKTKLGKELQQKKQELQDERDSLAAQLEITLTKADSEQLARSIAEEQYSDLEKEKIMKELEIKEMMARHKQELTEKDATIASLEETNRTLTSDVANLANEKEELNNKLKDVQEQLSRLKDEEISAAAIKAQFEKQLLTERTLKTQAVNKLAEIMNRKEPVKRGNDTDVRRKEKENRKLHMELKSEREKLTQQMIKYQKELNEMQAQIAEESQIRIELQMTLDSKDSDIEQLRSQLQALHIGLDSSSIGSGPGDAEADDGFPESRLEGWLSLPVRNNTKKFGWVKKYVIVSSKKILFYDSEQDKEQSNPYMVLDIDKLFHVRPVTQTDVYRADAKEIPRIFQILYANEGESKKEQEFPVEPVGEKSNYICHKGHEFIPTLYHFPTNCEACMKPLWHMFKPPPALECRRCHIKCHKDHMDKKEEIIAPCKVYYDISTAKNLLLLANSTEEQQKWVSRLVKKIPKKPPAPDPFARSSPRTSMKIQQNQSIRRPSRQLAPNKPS
Chain of UniProt Q8WU08 (whole entry, looked up): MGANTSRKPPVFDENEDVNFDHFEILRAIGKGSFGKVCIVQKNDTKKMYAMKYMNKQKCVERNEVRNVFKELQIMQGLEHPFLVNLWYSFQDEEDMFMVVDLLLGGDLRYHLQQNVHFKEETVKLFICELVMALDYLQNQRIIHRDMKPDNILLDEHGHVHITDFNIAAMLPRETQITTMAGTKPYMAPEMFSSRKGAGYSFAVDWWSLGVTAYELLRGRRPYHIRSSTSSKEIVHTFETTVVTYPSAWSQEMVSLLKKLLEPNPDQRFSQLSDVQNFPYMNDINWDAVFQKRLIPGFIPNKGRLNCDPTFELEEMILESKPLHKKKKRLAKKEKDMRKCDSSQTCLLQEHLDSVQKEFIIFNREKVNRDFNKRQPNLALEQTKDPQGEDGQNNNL
Chain of UniProt P57078 (whole entry, looked up): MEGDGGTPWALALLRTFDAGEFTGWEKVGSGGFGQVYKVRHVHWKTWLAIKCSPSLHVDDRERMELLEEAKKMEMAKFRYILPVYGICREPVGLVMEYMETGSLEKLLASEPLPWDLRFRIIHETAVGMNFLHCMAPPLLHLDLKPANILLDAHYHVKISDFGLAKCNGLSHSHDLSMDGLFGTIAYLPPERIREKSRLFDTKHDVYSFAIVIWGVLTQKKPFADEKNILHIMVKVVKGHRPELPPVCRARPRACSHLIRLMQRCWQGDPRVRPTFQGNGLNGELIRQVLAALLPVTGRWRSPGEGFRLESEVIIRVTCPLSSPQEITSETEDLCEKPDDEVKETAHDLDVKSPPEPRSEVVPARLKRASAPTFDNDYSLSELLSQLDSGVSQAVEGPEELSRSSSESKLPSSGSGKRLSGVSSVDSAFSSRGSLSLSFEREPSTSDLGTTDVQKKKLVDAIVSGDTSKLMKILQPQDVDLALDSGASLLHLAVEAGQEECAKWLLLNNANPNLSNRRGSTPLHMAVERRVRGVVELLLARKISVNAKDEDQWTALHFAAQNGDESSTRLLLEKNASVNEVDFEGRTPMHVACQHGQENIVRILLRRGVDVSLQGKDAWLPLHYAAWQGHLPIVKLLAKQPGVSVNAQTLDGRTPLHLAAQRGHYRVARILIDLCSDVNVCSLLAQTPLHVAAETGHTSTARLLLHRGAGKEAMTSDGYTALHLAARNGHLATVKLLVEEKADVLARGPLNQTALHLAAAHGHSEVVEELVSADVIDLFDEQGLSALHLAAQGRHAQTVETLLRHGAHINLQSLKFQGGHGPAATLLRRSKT
Chain of UniProt P42681 (whole entry, looked up): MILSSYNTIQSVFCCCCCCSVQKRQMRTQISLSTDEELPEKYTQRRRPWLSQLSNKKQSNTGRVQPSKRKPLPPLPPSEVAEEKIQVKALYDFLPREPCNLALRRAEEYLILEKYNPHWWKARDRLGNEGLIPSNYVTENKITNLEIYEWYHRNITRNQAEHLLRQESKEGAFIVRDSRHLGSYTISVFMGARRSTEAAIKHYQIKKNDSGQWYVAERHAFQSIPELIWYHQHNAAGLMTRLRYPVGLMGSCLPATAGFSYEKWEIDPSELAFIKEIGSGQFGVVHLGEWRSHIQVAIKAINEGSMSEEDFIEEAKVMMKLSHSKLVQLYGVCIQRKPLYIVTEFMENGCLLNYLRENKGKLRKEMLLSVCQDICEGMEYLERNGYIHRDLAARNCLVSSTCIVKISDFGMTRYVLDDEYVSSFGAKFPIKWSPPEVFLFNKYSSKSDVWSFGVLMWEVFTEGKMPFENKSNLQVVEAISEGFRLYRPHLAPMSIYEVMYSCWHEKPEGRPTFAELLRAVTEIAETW

Study 1
Target: Vascular endothelial growth factor receptor 3 (FLT4, Homo sapiens, UniProt P35916)
Chain of UniProt P35916 (whole entry, looked up): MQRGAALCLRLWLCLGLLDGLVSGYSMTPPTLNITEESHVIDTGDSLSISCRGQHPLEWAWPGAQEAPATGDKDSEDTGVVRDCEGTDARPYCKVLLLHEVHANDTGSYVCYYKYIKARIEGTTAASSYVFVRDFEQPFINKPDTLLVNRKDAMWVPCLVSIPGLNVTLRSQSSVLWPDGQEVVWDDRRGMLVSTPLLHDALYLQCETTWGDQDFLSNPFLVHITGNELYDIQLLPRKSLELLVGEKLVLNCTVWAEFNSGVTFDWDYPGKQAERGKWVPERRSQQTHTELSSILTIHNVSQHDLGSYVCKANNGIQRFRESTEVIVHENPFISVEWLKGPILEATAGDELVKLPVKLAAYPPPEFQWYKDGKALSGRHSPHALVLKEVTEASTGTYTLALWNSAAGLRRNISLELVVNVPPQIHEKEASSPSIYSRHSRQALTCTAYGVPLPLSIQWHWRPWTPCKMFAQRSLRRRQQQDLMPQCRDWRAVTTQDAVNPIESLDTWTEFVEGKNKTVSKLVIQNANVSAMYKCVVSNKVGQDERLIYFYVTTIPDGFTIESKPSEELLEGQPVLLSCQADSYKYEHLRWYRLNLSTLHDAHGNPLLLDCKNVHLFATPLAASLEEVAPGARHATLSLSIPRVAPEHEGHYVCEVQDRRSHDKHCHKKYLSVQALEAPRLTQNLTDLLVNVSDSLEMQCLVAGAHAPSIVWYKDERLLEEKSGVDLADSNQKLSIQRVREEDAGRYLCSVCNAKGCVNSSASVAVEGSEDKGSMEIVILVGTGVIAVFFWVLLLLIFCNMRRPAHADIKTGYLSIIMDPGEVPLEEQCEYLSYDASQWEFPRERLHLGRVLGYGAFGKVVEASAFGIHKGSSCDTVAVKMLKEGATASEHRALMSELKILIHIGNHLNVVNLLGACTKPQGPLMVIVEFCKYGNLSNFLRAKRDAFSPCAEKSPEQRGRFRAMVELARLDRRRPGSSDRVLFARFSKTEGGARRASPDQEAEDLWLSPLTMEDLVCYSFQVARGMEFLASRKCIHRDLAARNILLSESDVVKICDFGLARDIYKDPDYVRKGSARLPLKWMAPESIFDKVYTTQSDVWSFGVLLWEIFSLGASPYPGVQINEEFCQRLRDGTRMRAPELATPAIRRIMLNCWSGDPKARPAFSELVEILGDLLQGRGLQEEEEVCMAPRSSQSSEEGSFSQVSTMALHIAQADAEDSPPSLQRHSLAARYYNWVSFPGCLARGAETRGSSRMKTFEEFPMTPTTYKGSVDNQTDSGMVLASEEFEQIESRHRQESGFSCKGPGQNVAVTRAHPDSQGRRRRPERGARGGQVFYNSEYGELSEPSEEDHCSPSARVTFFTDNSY
Observed: enzyme activity
Action: inhibitor
Tested at: 0.5 µM
Reference: control
For `NC(=O)c1ccc(-c2nc(-c3ccc4c(c3)OCCO4)c(-c3ccccn3)[nH]2)cc1`, the remaining activity was 103%.
For `COc1cc2c(N3CCN(C(=O)Nc4ccc(OC(C)C)cc4)CC3)ncnc2cc1OCCCN1CCCCC1`, the remaining activity was 94.6%.
The remaining activity of `CC(C)(C)c1nc2c3cc[nH]c(=O)c3c3cc(F)ccc3c2[nH]1` is reported as 71.2%.
For `CCN(CC)CCCCN1c2ccccc2Oc2ccc(Cl)cc21`, the remaining activity was 98.8%.
`N#CC(c1ccnc(NCCc2cccnc2)n1)c1nc2ccccc2s1` (centres unmarked) gave a remaining activity of 86.1%.
The remaining activity of `CCCCc1c(-c2ccc(O)cc2)[nH]c2nccnc12` is reported as 77.4%.
`CC(C)N(CCC(=O)c1ccc2ccccc2c1)Cc1ccccc1` gave a remaining activity of 94%.
With `c1cc(-c2cnn3cc(-c4ccc(OCCN5CCCCC5)cc4)cnc23)ccn1` the remaining activity was 16.3%.
`FC(F)(F)c1ccc(/C=C/c2nc(COc3ccc(CCCCn4ccnn4)cc3)co2)cc1` has a remaining activity of 98%.
For `O=c1c(-c2ccc(F)cc2)c(-c2ccncc2)[nH]n1-c1ccc(Cl)cc1`, the remaining activity was 91.5%.
The remaining activity of `C[C@@H](N)[C@H]1CC[C@H](C(=O)Nc2ccncc2)CC1` is reported as 105%.
`O=Nc1c(-c2c(O)[nH]c3ccccc23)[nH]c2ccccc12` gave a remaining activity of 53%.
`N#C/C(=C(/N)SC1C=CC=CC1)c1cccc(C(O)c2ccncc2)c1` (centres unmarked) gave a remaining activity of 99.9%.
The remaining activity of `O=C(O)/C=C/c1cc(Br)c(Br)c(Br)c1Br` is reported as 98.2%.
The remaining activity of `NC(=O)c1cccc(-c2cc(Nc3ccc(OC(F)(F)F)cc3)ncn2)c1` is reported as 98.5%.
The remaining activity of `O=C1c2ccccc2-c2nc3nnnn3nc21` is reported as 5.79%.
`CNc1cc2c(Nc3cccc(Br)c3)ncnc2cn1` has a remaining activity of 97%.
For `CC(C)n1cnc2c(Nc3cccc(Cl)c3)nc(NCCO)nc21`, the remaining activity was 92.6%.
`O=C1NC(=O)/C(=C/c2ccc3c(c2)OC(F)(F)O3)S1` gave a remaining activity of 107%.
With `Nc1nc(Nc2ccc(S(N)(=O)=O)cc2)nn1C(=S)Nc1c(F)cccc1F` the remaining activity was 3.75%.
`O=C(c1ccccc1)c1ccc(N2CCOCC2)cc1O` gave a remaining activity of 112%.

Study 2
Structure (SMILES): Cc1ccc(NC(=O)c2ccnc(C(F)(F)F)c2)cc1-c1cc(OCCO)nc(N2CCOCC2)c1
Tested at: 1 µM
The remaining binding was 93% (CSF1R (Homo sapiens, UniProt P07333); competitive binding panel; reference: vehicle).
For ROCK2 (Homo sapiens, UniProt O75116); competitive binding panel; reference: vehicle: remaining binding read 96%.
For CLK3 (Homo sapiens, UniProt P49761); competitive binding panel; reference: vehicle: remaining binding read 100%.
MAPK10 (Homo sapiens, UniProt P53779); competitive binding, scanMAX; JNK3, 1000 nM — remaining binding: 90%.
For STK25 (Homo sapiens, UniProt O00506); competitive binding panel, refers to: YSK1; reference: vehicle: remaining binding read 100%.
PRKG1 (Homo sapiens, UniProt Q13976); competitive binding panel; reference: vehicle — remaining binding: 100%.
For PRKD2 (Homo sapiens, UniProt Q9BZL6); competitive binding panel; reference: vehicle: remaining binding read 88%.
The remaining binding was 100% (AKT3 (Homo sapiens, UniProt Q9Y243); competitive binding panel; reference: vehicle).
For TXK (Homo sapiens, UniProt P42681); competitive binding panel; reference: vehicle: remaining binding read 97%.
For PRKAA1 (Homo sapiens, UniProt Q13131); competitive binding, scanMAX; AMPK-alpha1, 1000 nM: remaining binding read 85%.
The remaining binding was 88% (LIM domain kinase 2 (LIMK2, Homo sapiens, UniProt P53671); competitive binding panel; reference: vehicle).
STK4 (Homo sapiens, UniProt Q13043); competitive binding panel, refers to: MST1; reference: vehicle — remaining binding: 100%.
For STK16 (Homo sapiens, UniProt O75716); competitive binding panel; reference: vehicle: remaining binding read 100%.
It gave 100% for remaining binding (PTK2 (Homo sapiens, UniProt Q05397); competitive binding; FAK).
PHKG1 (Homo sapiens, UniProt Q16816); competitive binding panel; reference: vehicle — remaining binding: 100%.
For EPHA7 (Homo sapiens, UniProt Q15375); competitive binding panel; reference: vehicle: remaining binding read 99%.

Study 3
Target: Calcium/calmodulin-dependent protein kinase type II subunit alpha (CAMK2A, Homo sapiens, UniProt Q9UQM7)
Chain of UniProt Q9UQM7 (whole entry, looked up): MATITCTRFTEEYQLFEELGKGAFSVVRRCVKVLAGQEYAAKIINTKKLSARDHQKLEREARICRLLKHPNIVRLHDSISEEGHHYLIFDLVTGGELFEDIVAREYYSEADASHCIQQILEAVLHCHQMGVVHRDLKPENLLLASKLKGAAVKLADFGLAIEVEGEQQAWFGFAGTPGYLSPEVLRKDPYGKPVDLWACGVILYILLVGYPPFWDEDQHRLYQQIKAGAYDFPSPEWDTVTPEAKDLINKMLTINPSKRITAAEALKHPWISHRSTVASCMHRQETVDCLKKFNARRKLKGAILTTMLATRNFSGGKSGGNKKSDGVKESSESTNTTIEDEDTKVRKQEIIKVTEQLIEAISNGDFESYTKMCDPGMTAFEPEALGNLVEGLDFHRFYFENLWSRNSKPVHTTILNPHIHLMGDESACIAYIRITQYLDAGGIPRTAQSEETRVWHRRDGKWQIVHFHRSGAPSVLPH
Observed: enzyme activity
Action: inhibitor
Tested at: 10 µM
The inhibition of `C=C1C(=O)O[C@H]2C[C@H](C)C(/C=C/C(C)=O)=CC[C@H]12` is reported as -3%.
The inhibition of `O=C(O)CC(C(=O)O)C(O)C(=O)O` (racemic) is reported as -5%.
With `O=C(O)CC(O)C(=O)O` (centres unmarked) the inhibition was -2%.
`O=C(/C=C/c1ccc(O)c2oc(-c3ccc(O)c(O)c3)cc12)O[C@H](Cc1ccc(O)c(O)c1)C(=O)O` has an inhibition of 90%.
For `CC[C@H]1OC(=O)[C@H](C)[C@@H](O[C@H]2C[C@@](C)(OC)[C@@H](O)[C@H](C)O2)[C@H](C)[C@@H](O[C@@H]2O[C@H](C)C[C@H](N(C)C)[C@H]2O)[C@](C)(O)C[C@@H](C)C(=O)[C@H](C)[C@H]2OC(=O)O[C@@]21C`, the inhibition was -4%.
For `O=C(O)[C@H]1O[C@@H](Oc2cc(O)c3c(=O)cc(-c4ccccc4)oc3c2)[C@H](O)[C@@H](O)[C@@H]1O`, the inhibition was 16%.
The inhibition of `O=C1O[C@H]([C@@H](O)CO)C(=O)C1=O` is reported as 0%.
With `CC(=O)OCC1=CO[C@@H](OC(=O)CC(C)C)[C@H]2C1=C[C@H](OC(=O)CC(C)(C)OC(C)=O)[C@]21CO1` the inhibition was -37%.
With `CONC(=O)Nc1ccc(-c2sc3c(c2CN(C)C)c(=O)n(-c2ccc(OC)nn2)c(=O)n3Cc2c(F)cccc2F)cc1` the inhibition was -11%.
For `C[C@@H]1O[C@@H](OC[C@H]2O[C@@H](Oc3cc(O)c4c(=O)cc(-c5ccc(O)cc5)oc4c3)[C@H](O)[C@@H](O)[C@@H]2O)[C@H](O)[C@H](O)[C@H]1O`, the inhibition was -4%.
For `CN(C)CCOC(=O)COc1ccc(Cl)cc1`, the inhibition was -14%.
For `N=C(N)NCCCCN`, the inhibition was -5%.

Study 4
SMILES: Cc1nc(C2CCN(C(=O)c3ccc(OC(F)(F)F)cc3N)CC2)c2ncc(N3CCN(C)CC3)cc2n1
Tested at: 1 µM
For FLT3 (Homo sapiens, UniProt P36888, K663Q); cell-free assay, competition with immobilised ligand: remaining binding read 100%.
For TEC (Homo sapiens, UniProt P42680); cell-free assay, competition with immobilised ligand: remaining binding read 96%.
The remaining binding was 100% (EGFR (Homo sapiens, UniProt P00533, del747-752/P753S); cell-free assay, competition with immobilised ligand).
It gave 100% for remaining binding (GAK (Homo sapiens, UniProt O14976); cell-free assay, competition with immobilised ligand).
For ROCK2 (Homo sapiens, UniProt O75116); cell-free assay, competition with immobilised ligand: remaining binding read 91%.
For Aurora kinase B (AURKB, Homo sapiens, UniProt Q96GD4); cell-free assay, competition with immobilised ligand: remaining binding read 88%.
Tyrosine-protein kinase JAK3, JH1 (JAK3, Homo sapiens, UniProt P52333); cell-free assay, competition with immobilised ligand — remaining binding: 100%.
LTK (Homo sapiens, UniProt P29376); cell-free assay, competition with immobilised ligand — remaining binding: 86%.
It gave 100% for remaining binding (PRKACB (Homo sapiens, UniProt P22694); cell-free assay, competition with immobilised ligand).
SIK1 (Homo sapiens, UniProt P57059); competition binding — remaining binding: 100%.
ALK (Homo sapiens, UniProt Q9UM73); cell-free assay, competition with immobilised ligand — remaining binding: 89%.
The remaining binding was 76% (Tyrosine-protein kinase ABL1, phosphorylated (ABL1, Homo sapiens, UniProt P00519, F317I); binding).
NEK4 (Homo sapiens, UniProt P51957); cell-free assay, competition with immobilised ligand — remaining binding: 100%.
For CDK15 (Homo sapiens, UniProt Q96Q40); cell-free assay, competition with immobilised ligand: remaining binding read 100%.
The remaining binding was 86% (STK32A (Homo sapiens, UniProt Q8WU08); cell-free assay, competition with immobilised ligand).
ERBB4 (Homo sapiens, UniProt Q15303); cell-free assay, competition with immobilised ligand — remaining binding: 100%.
It gave 87% for remaining binding (RIOK3 (Homo sapiens, UniProt O14730); cell-free assay, competition with immobilised ligand).
PI4KB (Homo sapiens, UniProt Q9UBF8); cell-free assay, competition with immobilised ligand — remaining binding: 84%.
It gave 100% for remaining binding (EPHA1 (Homo sapiens, UniProt P21709); cell-free assay, competition with immobilised ligand).
MAP2K6 (Homo sapiens, UniProt P52564); cell-free assay, competition with immobilised ligand — remaining binding: 97%.
It gave 100% for remaining binding (CDK7 (Homo sapiens, UniProt P50613); cell-free assay, competition with immobilised ligand).
NEK6 (Homo sapiens, UniProt Q9HC98); cell-free assay, competition with immobilised ligand — remaining binding: 100%.
It gave 84% for remaining binding (RIPK4 (Homo sapiens, UniProt P57078); cell-free assay, competition with immobilised ligand).
HIPK3 (Homo sapiens, UniProt Q9H422); cell-free assay, competition with immobilised ligand — remaining binding: 96%.
It gave 97% for remaining binding (STK24 (Homo sapiens, UniProt Q9Y6E0); cell-free assay, competition with immobilised ligand).

A few entries again (study 1):
For `CCN(CC)CCCCN1c2ccccc2Oc2ccc(Cl)cc21`, the remaining activity was 98.8%.
`N#CC(c1ccnc(NCCc2cccnc2)n1)c1nc2ccccc2s1` (centres unmarked) gave a remaining activity of 86.1%.
The remaining activity of `CCCCc1c(-c2ccc(O)cc2)[nH]c2nccnc12` is reported as 77.4%.
`CC(C)N(CCC(=O)c1ccc2ccccc2c1)Cc1ccccc1` gave a remaining activity of 94%.
With `c1cc(-c2cnn3cc(-c4ccc(OCCN5CCCCC5)cc4)cnc23)ccn1` the remaining activity was 16.3%.
`FC(F)(F)c1ccc(/C=C/c2nc(COc3ccc(CCCCn4ccnn4)cc3)co2)cc1` has a remaining activity of 98%.
For `O=c1c(-c2ccc(F)cc2)c(-c2ccncc2)[nH]n1-c1ccc(Cl)cc1`, the remaining activity was 91.5%.
The remaining activity of `C[C@@H](N)[C@H]1CC[C@H](C(=O)Nc2ccncc2)CC1` is reported as 105%.
`O=Nc1c(-c2c(O)[nH]c3ccccc23)[nH]c2ccccc12` gave a remaining activity of 53%.
`N#C/C(=C(/N)SC1C=CC=CC1)c1cccc(C(O)c2ccncc2)c1` (centres unmarked) gave a remaining activity of 99.9%.
